Measurements collected from several papers.
Numbered parts are unrelated; each lists some results of a single study.

Sample 1
Target: Transcription factor Sp1 (SP1, Homo sapiens, UniProt P08047, residues 1-785, full length assumed)
UniProt P08047, sequence (whole entry, looked up): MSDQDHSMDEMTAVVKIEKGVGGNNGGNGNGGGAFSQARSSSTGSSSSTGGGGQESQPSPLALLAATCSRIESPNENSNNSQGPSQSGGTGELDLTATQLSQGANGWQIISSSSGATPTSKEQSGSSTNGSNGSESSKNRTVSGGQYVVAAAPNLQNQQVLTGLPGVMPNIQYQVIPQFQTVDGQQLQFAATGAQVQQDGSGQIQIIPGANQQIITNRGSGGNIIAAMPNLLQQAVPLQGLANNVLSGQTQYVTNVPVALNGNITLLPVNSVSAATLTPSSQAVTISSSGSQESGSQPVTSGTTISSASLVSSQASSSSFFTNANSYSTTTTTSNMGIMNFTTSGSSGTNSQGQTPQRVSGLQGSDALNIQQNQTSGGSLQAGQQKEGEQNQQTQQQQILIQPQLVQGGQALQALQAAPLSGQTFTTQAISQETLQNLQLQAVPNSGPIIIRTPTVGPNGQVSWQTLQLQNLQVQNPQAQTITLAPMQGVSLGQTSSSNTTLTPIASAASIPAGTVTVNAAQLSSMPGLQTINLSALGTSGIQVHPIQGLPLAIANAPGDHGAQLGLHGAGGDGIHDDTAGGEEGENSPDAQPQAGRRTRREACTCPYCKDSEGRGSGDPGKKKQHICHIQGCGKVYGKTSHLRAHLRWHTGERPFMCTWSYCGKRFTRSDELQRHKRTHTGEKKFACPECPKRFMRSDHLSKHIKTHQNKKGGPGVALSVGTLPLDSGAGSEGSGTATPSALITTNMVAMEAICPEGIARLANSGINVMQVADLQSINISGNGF
Technique: protein-binding microarray
Form: double-stranded DNA, one strand shown
Sample: in vitro
Tested at: not given
Notes: k-mer, scored over probes, only values ≥0.25
Direction: higher = stronger binding
| Oligonucleotide | E-score |
| --- | --- |
| ATTAACAC | 0.288 |
| ATAGGGTA | 0.277 |
| CGAGGGGA | 0.284 |
| CCCTCGCC | 0.331 |
| CCACTCCC | 0.37 |
| CGCCCCTC | 0.48 |
| CCACCCCA | 0.473 |
| ACTCCCAC | 0.289 |
| CTCCCATA | 0.274 |
| AGGGGTAT | 0.311 |
| CCCCATAA | 0.271 |
| ATATAATA | 0.299 |
| ATATGGGG | 0.251 |
| ACATCCCC | 0.363 |
| GGGGATTA | 0.3 |
| ATGACACC | 0.253 |
| ATGGGAGG | 0.432 |
| CGTTAACG | 0.268 |
| AAACCCCG | 0.354 |
| CCCACCCA | 0.473 |

Sample 2
Target: TAR DNA-binding protein 43, full length, His tag (TARDBP, Homo sapiens, UniProt Q13148, residues 1-414)
Technique: RNA Bind-n-Seq
Form: RNA
Sample: in vitro
Tested at: 20 nM
Notes: 6-mer, flanks averaged, single round
With: 150 mM KCl
Reference: input library
Direction: higher = stronger binding
| Oligonucleotide | 6-mer enrichment (R) |
| --- | --- |
| UCUGCC | 0.617 |
| GCAACA | 0.764 |
| CACUCA | 0.604 |
| CUCCAC | 0.593 |
| GUGGGC | 4.26 |
| GUACCG | 0.907 |
| GCAGGC | 1.6 |
| GUAUAU | 0.703 |
| AGCGCA | 0.897 |
| UCCUAC | 0.553 |
| AAUCUA | 0.566 |
| GUCCUU | 0.661 |
| GGCCAG | 1.91 |
| GCUUGU | 0.815 |
| GCUCGA | 0.796 |
| GUAAAC | 0.653 |
| GUGAUG | 1.42 |
| AAAACC | 0.607 |

Sample 3
Target: Histone acetyltransferase KAT6A, both winged helices, GST fusion (KAT6A, Homo sapiens, UniProt Q92794, residues 1-181)
Technique: protein binding microarray
Form: double-stranded DNA, one strand shown
Sample: in vitro
Tested at: not given
Notes: 8-mer, flanks averaged, mean of 2 arrays, mostly near background
Reference: not given
Direction: higher = stronger binding
Target sequence (chain): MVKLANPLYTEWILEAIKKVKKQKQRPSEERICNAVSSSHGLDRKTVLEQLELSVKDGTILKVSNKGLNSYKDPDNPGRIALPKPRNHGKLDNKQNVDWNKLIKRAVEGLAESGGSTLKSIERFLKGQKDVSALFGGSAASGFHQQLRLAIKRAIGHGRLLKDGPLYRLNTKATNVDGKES
| Oligonucleotide | E-score |
| --- | --- |
| TGTCTCAA | -0.121 |
| GTGCAGAA | -0.006 |
| TAGCCTGA | -0.276 |
| AATCGGGC | 0.0334 |
| ACCTAACC | 0.0256 |
| CGGTGTAC | 0.179 |
| AAACAGTC | -0.00539 |
| ATATGGAC | -0.126 |
| AGTTTTTA | -0.0759 |
| AAGTGTGA | -0.21 |
| ATCCGACA | 0.0669 |
| GACTGGGA | -0.123 |
| CTCATTAC | -0.00615 |
| CAACGTAG | -0.144 |
| TAACTCGA | -0.0619 |
| ACCGCCAC | 0.0827 |
| AGGACCAA | -0.114 |
| TACACCCA | -0.0731 |
| ATCTATAG | -0.0605 |
| AAACCCGA | 0.212 |

Sample 4
Target: Ras GTPase-activating protein-binding protein 1, full length (G3BP1, Homo sapiens, UniProt Q13283)
UniProt Q13283, sequence (whole entry, looked up): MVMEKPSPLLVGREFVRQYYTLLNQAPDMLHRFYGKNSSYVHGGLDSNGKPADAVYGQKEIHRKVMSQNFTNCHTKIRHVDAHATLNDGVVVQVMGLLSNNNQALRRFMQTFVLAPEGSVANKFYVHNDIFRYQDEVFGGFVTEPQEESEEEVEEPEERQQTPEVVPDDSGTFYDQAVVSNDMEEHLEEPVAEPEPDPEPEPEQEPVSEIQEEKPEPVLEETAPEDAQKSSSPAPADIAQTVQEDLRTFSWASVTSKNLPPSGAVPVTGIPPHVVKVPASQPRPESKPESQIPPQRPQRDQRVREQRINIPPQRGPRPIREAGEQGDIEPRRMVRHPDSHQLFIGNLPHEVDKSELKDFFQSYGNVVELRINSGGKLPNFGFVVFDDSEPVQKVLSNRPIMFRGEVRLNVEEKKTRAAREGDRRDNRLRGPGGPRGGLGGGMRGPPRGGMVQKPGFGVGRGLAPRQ
Technique: RNA Bind-n-Seq
Form: RNA
Sample: in vitro
Tested at: 200 nM
Notes: whole 134-nt RNA, ends assumed
With: 150 mM LiCl
Reference: input library
Direction: higher = stronger binding
Library: 7-deaza-guanosine replaces G
Constant ends, left off below: GGGAGUUCUACAGUCCGACGAUC … UGGAAUUCUCGGGUGUCAAGG
| Oligonucleotide | log2 enrichment |
| --- | --- |
| UAACUUUAGAGGAGGAUCUGAUGGAUAUGGCAGUGGACGUGGAUUUGGGGAUGGCUAUAAUGGGUAUGGAGCAGGACCUGGAGGUGGCAA | -0.158 |
| UUAGAUGAGUGACCGAGGAGGUGGCGUUCCUUUGAGGAAAAUUGACAGACUUUUCAACUACAUGUAUUCAACUGCACCAAGACCUCGUGU | -0.617 |
| GUUAAUUCCACCAUCCCCAUCACAGCAGAAGUUUUCAAGAAGCAUGGAGUGUACAACCCCAACAAAAUCUUCGGCGUGACGACCCUGGAC | 1.03 |
| CCUCAAGUCCUGUGCUACACAUCGUAUGUACCGAAUCGGUUGGGUUGGUUGGAAAGUAUUAUGUUACGCCGUUCGGAUCUGCACUUCCAG | -0.0198 |
| AGUCCUGUGCUACACAUCGUAUGUACCGAAUCGGGAAAAAGGGUUUUUGGGUUUGGGAAAGUAUUAUGUUACGCCGUUCGGAUCUGCACU | -2.07 |
| UGCCUGCUCCGGGCCCCGUGCUGGCGCCUACGCACCUGCAGACAGAGCUGGUGCUGAGGUGCCAGAAGGAGACCGACUGUGACCUCUGUC | -0.605 |
| AGUCCUGUGCUACACAUCGUAUGUACCGAAUCGGGUUUUUGGUUUUUGGGGUUUUUGGAAAGUAUUAUGUUACGCCGUUCGGAUCUGCAC | -0.28 |
| UCAAGUCCUGUGCUACACAUCGUAUGUACCGAAUCGGAAAGGAAAGGAAAGGGGAAAGUAUUAUGUUACGCCGUUCGGAUCUGCACUUCC | -0.402 |
| GUCCUGUGCUACACAUCGUAUGUACCGAAUCGGGCCCCCCGGCCCCCCGGCCCCCCGGAAAGUAUUAUGUUACGCCGUUCGGAUCUGCAC | -0.073 |
| GUCCUGUGCUACACAUCGUAUGUACCGAAUCGGGGAAAAAGGGGUGGGGUUUUUGGGGAAAGUAUUAUGUUACGCCGUUCGGAUCUGCAC | -0.055 |
| UUAGAAGAACCCGAAGAACCUAAAGUGCUAACACCAGAAGAACAAUUAGCAGAUAAACUGCGGCUAAAGAAAUUACAGGAAGAGUCAGAC | 0.0987 |

Sample 5
Target: RNA binding protein fox-1 homolog 2, RRM domain, GST-SBP tag (RBFOX2, Homo sapiens, UniProt O43251-10, residues 100-194)
Technique: RNA Bind-n-Seq
Form: RNA
Sample: in vitro
Tested at: 365 nM
Notes: natural RNA segment, single round, ends assumed
Reference: no-protein control
Direction: higher = stronger binding
Constant ends, left off below: GGGAGUUCUACAGUCCGACGAUC … UGGAAUUCUCGGGUGCCAA
Target sequence (chain): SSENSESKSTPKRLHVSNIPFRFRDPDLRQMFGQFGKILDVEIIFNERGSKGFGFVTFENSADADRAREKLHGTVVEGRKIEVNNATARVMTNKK
| Oligonucleotide | RBNS enrichment (R) |
| --- | --- |
| UCUCCCUCCCCUCUCAGAACAUACUGAUUGGGAGGUGCGUGUUCAGCAGAACCUGCACACAGGACAGCGGGAAAAAUCGAUGAGCGCCACCUCUUUAAAAACUCACUUAC | 0.559 |
| CACUUGUACAUAACUAUACAGUAGUGUCCAGAAUGUUCAGACAUUCGGAGUGUACAUAAAACAGAAAAAAUCUUCAUGUAUUUUUAUUAAAUAUAACAAUGUCUGAGUUU | 0.48 |
| CUUUUUGUUAGCUGUGUACAGAAUGUGUAUCCUAUCUCCUCCCCUCCUUGGCUAAUCAUUGGCAGGGGUCUUCCUGGGGAAAAGCUUAAAGAGCAGCUAGGGAAGGAGAG | 1.3 |
| AGGAGUUCAGUUGUGAGGAAAGAAGGCUGGAGCUGUGAGAUUCGCUUUUCCCUAGGCUGUUCCGCGUGGGUUACCUUAUCACCCUGGAGCACUUGGUAUUCCAGACCCCU | 0.283 |
| AAGUUUAGUUUAAUGUUAGUGCAGUGACAGGAAAUACACAUUAUGCUGAUGUUGAUGACAGAAUUUAUUUGGUUGCCUUGUGUGUCAAUUGAAUGCAUACUAAACUGUAA | 0.856 |
| UGUGCCUUGUCUCUACUCCCUCUCUUGGAUCUGGGGAGGAGGGGCAGAGACCUGGGACUCUGUAUUUCUAUAGUUCUCCUGGCAGAGCCUUUGAGAAUGGGGAGAAACAG | 0.827 |
| GCUUCGUGAAUGUGUGUGGACUCUAGUUUCCGCAAAACAACGCAACACAAAACCAAGCAAGCAAAACACAAACACGAGUACAAACCUUGACCUGAUGAGGGACAGAGCUU | 1.43 |
| GAGAGGGCUCUGAAAGGUCCACAGAGUUUGACAGACACGAAAGCAACCCAUUGCCCCGUUGACCUGACCUGGAAGAAGACUGUCAGCAAAAGGAAAAUACCAGAAUAUCU | 0.244 |
| UUCCUGCGGGGCUCAGCCCCCUCCAGGAUGCAGCCCCCUCCCCCGCACCCCGGAACCGGCGUCGCUGGCGCAUCCUGGGUGGAGGCAGGCCCCGAGCUCGGGGAAGGGGU | 2.41 |
| ACUCAGAAGAGACCAUCCAAUCAUGAGCAAGUGACCCAGUCCCCUUUCCUCUCUGUAGAGGGAUGACUGACAGUUUUAUCAAUUCUCCUCACCAGGGUUGACUGCCUUCA | 0.229 |
| UGAAGUGGGGCCACAGAUUUAGAAUCCAUUUAAGUUUCCCUGUUGUGUGUCUGUGUUGACCCUGGGACAAGUGUGAGACAGGAAGAGUGUGGGGAGUCUGGGCUCGGUAG | 1.56 |
| AGGGUUUCACGCUGUUCUUUUCCUCUGAAGUAUGACAUUUCAUUGACACAUUUCGGUCCAGUGUAGCUGUACAUAUGGGGUGUGGACGACCUGUUACUGGACAUGUCUUA | 0.556 |

Repeated from above (sample 5):
| Oligonucleotide | RBNS enrichment (R) |
| --- | --- |
| UCUCCCUCCCCUCUCAGAACAUACUGAUUGGGAGGUGCGUGUUCAGCAGAACCUGCACACAGGACAGCGGGAAAAAUCGAUGAGCGCCACCUCUUUAAAAACUCACUUAC | 0.559 |
| CACUUGUACAUAACUAUACAGUAGUGUCCAGAAUGUUCAGACAUUCGGAGUGUACAUAAAACAGAAAAAAUCUUCAUGUAUUUUUAUUAAAUAUAACAAUGUCUGAGUUU | 0.48 |
| CUUUUUGUUAGCUGUGUACAGAAUGUGUAUCCUAUCUCCUCCCCUCCUUGGCUAAUCAUUGGCAGGGGUCUUCCUGGGGAAAAGCUUAAAGAGCAGCUAGGGAAGGAGAG | 1.3 |
| AGGAGUUCAGUUGUGAGGAAAGAAGGCUGGAGCUGUGAGAUUCGCUUUUCCCUAGGCUGUUCCGCGUGGGUUACCUUAUCACCCUGGAGCACUUGGUAUUCCAGACCCCU | 0.283 |
| AAGUUUAGUUUAAUGUUAGUGCAGUGACAGGAAAUACACAUUAUGCUGAUGUUGAUGACAGAAUUUAUUUGGUUGCCUUGUGUGUCAAUUGAAUGCAUACUAAACUGUAA | 0.856 |
| UGUGCCUUGUCUCUACUCCCUCUCUUGGAUCUGGGGAGGAGGGGCAGAGACCUGGGACUCUGUAUUUCUAUAGUUCUCCUGGCAGAGCCUUUGAGAAUGGGGAGAAACAG | 0.827 |
| GCUUCGUGAAUGUGUGUGGACUCUAGUUUCCGCAAAACAACGCAACACAAAACCAAGCAAGCAAAACACAAACACGAGUACAAACCUUGACCUGAUGAGGGACAGAGCUU | 1.43 |
| GAGAGGGCUCUGAAAGGUCCACAGAGUUUGACAGACACGAAAGCAACCCAUUGCCCCGUUGACCUGACCUGGAAGAAGACUGUCAGCAAAAGGAAAAUACCAGAAUAUCU | 0.244 |
| UUCCUGCGGGGCUCAGCCCCCUCCAGGAUGCAGCCCCCUCCCCCGCACCCCGGAACCGGCGUCGCUGGCGCAUCCUGGGUGGAGGCAGGCCCCGAGCUCGGGGAAGGGGU | 2.41 |
| ACUCAGAAGAGACCAUCCAAUCAUGAGCAAGUGACCCAGUCCCCUUUCCUCUCUGUAGAGGGAUGACUGACAGUUUUAUCAAUUCUCCUCACCAGGGUUGACUGCCUUCA | 0.229 |
| UGAAGUGGGGCCACAGAUUUAGAAUCCAUUUAAGUUUCCCUGUUGUGUGUCUGUGUUGACCCUGGGACAAGUGUGAGACAGGAAGAGUGUGGGGAGUCUGGGCUCGGUAG | 1.56 |
